{"data": "Assay results collected from several papers"}
{"SMILES": "Cc1cc(Nc2ncnc3ccc(NC4=NC(C)(CO)CO4)cc23)ccc1Oc1ccn2ncnc2c1 (stereo not drawn)", "system": "human, plasma", "setting": "tucatinib, day 10, with: rifampin once daily", "measurement": "Tmax (median)", "value": "1 h"}
{"SMILES": "CCCOc1ccc(NC(=O)CN2CCN(C)CC2)cc1-c1nc(CC)c(CC)c(=O)[nH]1", "system": "human, fasting, plasma", "setting": "oral, 10 mg, with: placebo", "measurement": "Tmax (median)", "value": "2 h"}
{"SMILES": "Cn1ncnc1[C@H]1c2n[nH]c(=O)c3cc(F)cc(c23)N[C@@H]1c1ccc(F)cc1", "system": "human patients, plasma", "setting": "oral, 600 µg/m2 twice daily, day 1, monotherapy, dose level DL5, median", "measurement": "Tmax", "value": "2 h"}
{"SMILES": "CCO", "system": "human, breath", "setting": "0.5 g/kg, with: placebo", "measurement": "Tmax (median)", "value": "0.57 h"}
{"SMILES": "N#Cc1ccc2c(c1)[C@H]1CCCN(C(=O)c3ccc4[nH]cnc4c3)[C@H]1C2", "system": "human, plasma", "setting": "oral, 240 mg once daily, median", "measurement": "Tmax at steady state", "value": "0.667 h"}
{"SMILES": "COc1cc(C(=O)NC2CCN(C)CC2)c(F)cc1Nc1ncc(C(F)(F)F)c(Oc2cccc3c2C(=O)N(C)C3)n1", "system": "human patients, plasma", "setting": "oral, 50 mg once daily repeated, median", "measurement": "Tmax at steady state", "value": "1 h"}
{"SMILES": "Cc1ccc([C@@H]2O[C@H](CO)[C@@H](O)[C@H](O)[C@H]2O)cc1Cc1ccc(-c2ccc(F)cc2)s1", "system": "human, maintenance hemodialysis patients", "setting": "oral, 100 mg once daily, steady state, median", "measurement": "tmax", "value": "2.8 h"}
{"SMILES": "Cc1cn(C(=O)c2c(-c3c(Cl)cc(Cl)cc3Cl)noc2C(C)(C)F)c2cccc(/C=C/C(=O)O)c12", "system": "human patients", "setting": "1000 mg bid, cycle 8 day 1", "measurement": "Tmax", "value": "3.03 h"}
{"SMILES": "COc1cc(N2CCC(N3CCN(C)CC3)CC2)ccc1Nc1ncnc(Nc2ccccc2S(=O)(=O)C(C)C)n1", "system": "human, plasma", "setting": "oral, 125 mg, day 1", "measurement": "tmax", "value": "2.53 h"}
{"SMILES": "COc1ncc(-c2nc3c(n2C(C)C)[C@H](c2ccc(Cl)cc2)N(c2cc(Cl)cn(C)c2=O)C3=O)c(OC)n1", "assay": "LC-MS/MS, noncompartmental", "system": "human, plasma", "setting": "oral, 120 mg, C2D1, high-dose, median", "measurement": "Tmax", "value": "3.6 h"}
{"SMILES": "Cc1noc(C)c1-c1cc(C(O)(c2ccccn2)c2ccccn2)c2nc(C3CC3)[nH]c2c1", "system": "human, fasted, plasma", "setting": "oral, 3 mg, cycle 1 day 15, with: enzalutamide once daily", "measurement": "Tmax", "value": "0.5 h"}
{"SMILES": "Cc1cc(C)c(CNC(=O)c2cc(Cl)c3c(c2C)O[C@@](C)([C@H]2CC[C@H](N(C)C)CC2)O3)c(=O)[nH]1", "system": "human, plasma", "setting": "oral, 200 mg, cycle 1 day 1", "measurement": "Tmax total drug", "value": "2 h"}
{"SMILES": "C=CC(=O)Nc1cc(Nc2nccc(-c3cn(C)c4ccccc34)n2)c(OC)cc1N(C)CCN(C)C", "system": "human, plasma", "setting": "oral, cycle 3 day 1, safety run-in, with: carboplatin plus pemetrexed", "measurement": "Tmax at steady state", "value": "6 h"}
{"SMILES": "O=C(Nc1cnccc1Cl)N1CCN(Cc2ccc3c(c2)OC(F)(F)O3)CC1", "system": "human healthy young men, plasma", "setting": "oral, 75 mg once daily, day 10, multiple dose median", "measurement": "tmax", "value": "3 h"}
{"SMILES": "CC#CC(=O)N1CC[C@@H](n2c(=O)n(-c3ccc(Oc4ccccc4)cc3)c3c(N)ncnc32)C1", "system": "human, fasted, plasma", "setting": "oral, 300 mg twice daily, cycle 1 day 28", "measurement": "Tmax (median)", "value": "2.06 h"}
{"SMILES": "O=C(COc1ccc(Cl)cc1)NC12CC(c3nnc([C@H]4C[C@@H](OC(F)(F)F)C4)o3)(C1)C2", "system": "healthy human both sexes, plasma", "setting": "oral, 45 mg once daily, day 1, median fasted", "measurement": "tmax", "value": "14 h"}
{"SMILES": "CCNCc1cc(Nc2ccnc3cc(Cl)ccc23)ccc1O", "system": "humans, both sexes, plasma", "setting": "oral, outlier included", "how to read": "baseline: fixed over non-fixed combination", "measurement": "Tmax ratio", "value": 0.82}
{"SMILES": "C=CC(=O)Nc1cc(Nc2nccc(-c3c[nH]c4ccccc34)n2)c(OC)cc1N(C)CCN(C)C", "system": "human, plasma", "setting": "cycle 3 day 1, safety run-in, with: carboplatin plus pemetrexed", "measurement": "Tmax at steady state", "value": "5.9 h"}
{"SMILES": "COC(=O)N[C@@H](C)CNc1nccc(-c2cn(C(C)C)nc2-c2cc(Cl)cc(NS(C)(=O)=O)c2F)n1", "system": "humans, plasma", "setting": "oral, day 14, steady state, with: binimetinib", "measurement": "Tmax median", "value": "1.93 h"}
{"SMILES": "CN(C)N=Nc1[nH]cnc1C(N)=O", "system": "human patients, plasma", "setting": "intravenous, 1000 mg/m^2 over 1 h, cycle 1 day 1 after infusion start, given alone", "measurement": "Tmax (median)", "value": "1 h"}
{"SMILES": "COc1cc(C(=O)NC2CCN(C)CC2)c(F)cc1Nc1ncc(C(F)(F)F)c(Oc2cccc3c2C(=O)N(C)C3)n1", "system": "human, Taiwanese, plasma", "setting": "oral, 200 mg once daily multiple dose, median", "measurement": "Tmax steady state", "value": "2 h"}
{"SMILES": "Cc1nc2ccc(F)cc2n1-c1nc(N)c(F)c(Nc2ccc(C(F)(F)F)cc2)n1", "system": "human patients, plasma", "setting": "oral, 200 mg twice weekly, cycles 1 and 2 pooled", "measurement": "Tmax median", "value": "3.94 h"}
{"SMILES": "COc1c(N2C[C@@H]3CCCN[C@@H]3C2)c(F)cc2c(=O)c(C(=O)O)cn(C3CC3)c12", "system": "human, plasma", "setting": "oral, 400 mg, day 5", "measurement": "tmax at steady state", "value": "2 h"}
{"SMILES": "C[C@@H](Cn1ccc(-c2ccc(C#N)c(Cl)c2)n1)NC(=O)c1cc([C@@H](C)O)[nH]n1", "system": "healthy male human, plasma", "setting": "intravenous infusion, 100 µg 14C-labelled, 15 min infusion, microtracer, median", "measurement": "tmax", "value": "0.25 h"}
